Results collected from several papers.
A part holds a random share of what one study measured. Positions count from the first letter of the parent shown.

Sample 1 — method: RNA Bind-n-Seq; molecule type: RNA; sample: in vitro; tested at: 365 nM; reference: no-protein control; direction: higher = stronger binding
Target: RNA binding protein fox-1 homolog 2, RRM domain, GST-SBP tag (RBFOX2, Homo sapiens, UniProt O43251-10, residues 100-194)
Setting: natural RNA segment, single round, ends assumed
For `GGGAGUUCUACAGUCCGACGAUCUAUGCAAAAUGUCUGUUUUAGUUGGAAUGACUGAAAGAAGAACAGCUGUUCCUGUGUUCUUCGUAUAUACACACAAAAAGGAGCGGGCAGGGCCGCUCGAUGCCUUUGCUUGGAAUUCUCGGGUGCCAA`, “RBNS enrichment (R)” read 0.776.
`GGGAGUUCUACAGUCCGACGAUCUGGUAGCUUUUCUGGACUGUGUGCAGCAGUUCAAAGAAGAGGUGGAAAAAGGAGAGACUCGAUUUUGUCUUCCGUACAGGAUGGACGUGGAGAAAGGCAAGAUUGAAGACUGGAAUUCUCGGGUGCCAA`: “RBNS enrichment (R)” 0.502.
Under “RBNS enrichment (R)”, `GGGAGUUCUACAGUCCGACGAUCCCCUUGAGGCCGCACAAGCUACUGCAGCCAUGGGUUUGCCUACCACCUUUCUGUUCUGUGGACUCGGUGCAGGUGGGUGGGGUGGUAAACAGUGGAAGAGCUCCUCCCCCUGGAAUUCUCGGGUGCCAA` is recorded as 0.716.
`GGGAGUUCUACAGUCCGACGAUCGCUUCUCGCCCCUCAGUGGUUUCCUCGGCCCUCCUGGGUUUACUCCUUGAGUUUUCCUGCUGCGAUGCAAUGCUUUUCUAAUCUGCAGUGGCUCUUACAAAACUCUGUUCUGGAAUUCUCGGGUGCCAA` — result for “RBNS enrichment (R)”: 0.559.
`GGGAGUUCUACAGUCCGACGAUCCACCAGCUUUCCAAAUGCACUCUGCUUGUGUUGAAAUUCUCCCAUUUUUAUUUGGGCAUAAAAGUUGUUGCCUUUAUUUGUAAAGCUGUUAUAAAUAUAUAUUAUAUAAAUGGAAUUCUCGGGUGCCAA` — result for “RBNS enrichment (R)”: 2.33.
`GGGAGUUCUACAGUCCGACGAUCAAUAUGCAAACUCCAUCUCAAAACUACUGUCUUUCACCUUCCCAAAUCUCUAUCCUCGUGUGCUUCAAGCUCUAUAACAACCAUAUCAUGAGGUAUUUGCAAAGGAAAACUGGAAUUCUCGGGUGCCAA` — result for “RBNS enrichment (R)”: 0.703.
`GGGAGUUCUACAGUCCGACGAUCUAAAGAACUGAACCCUAAAUCAGCUCCCACUAAUGAAACCCUGCUUUCCUUGUAUCUUUUAAACUCAGUUCUGCAUCCAACUUGAGAAGAAAAAAAGCUUCUUUCCAUAUUGGAAUUCUCGGGUGCCAA` — result for “RBNS enrichment (R)”: 3.48.

Sample 2 — method: protein binding microarray; molecule type: double-stranded DNA, one strand shown; sample: in vitro; tested at: not given; reference: not given; direction: higher = stronger binding
Target: Histone acetyltransferase KAT6A, winged helix 2, GST fusion (KAT6A, Homo sapiens, UniProt Q92794, residues 85-181)
Setting: 8-mer, flanks averaged, mean of 2 arrays, mostly near background
Target sequence (chain): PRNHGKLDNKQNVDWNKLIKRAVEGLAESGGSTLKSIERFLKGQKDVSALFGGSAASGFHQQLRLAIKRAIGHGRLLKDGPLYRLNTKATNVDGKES
`CCGGCTCG` gave an E-score of 0.267.
The E-score of `ACGACCCT` is reported as 0.0363.
`ACAGACAG` has an E-score of 0.0118.
The E-score of `ACGTAGTA` is reported as 0.06.
The E-score of `CAGCAGGG` is reported as -0.0316.
With `CAAGACTA` the E-score was -0.237.
`GGGCCGCA` gave an E-score of 0.208.

Further values, each from its own experiment — CCNB2: CCNB2, cyclin fold, Cln2 fusion (human); CCND1: CCND1, cyclin fold, Cln2 fusion (human)
P1: SCAPER docking peptide (human); SNARRSLNFGGST; partner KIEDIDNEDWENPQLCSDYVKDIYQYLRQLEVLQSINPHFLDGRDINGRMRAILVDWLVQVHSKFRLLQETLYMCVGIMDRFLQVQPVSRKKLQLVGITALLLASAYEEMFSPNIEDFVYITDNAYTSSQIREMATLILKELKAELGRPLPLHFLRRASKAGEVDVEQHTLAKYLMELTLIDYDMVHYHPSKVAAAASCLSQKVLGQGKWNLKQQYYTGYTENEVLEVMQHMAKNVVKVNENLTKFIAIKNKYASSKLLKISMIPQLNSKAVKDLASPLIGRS
P2: GMNC docking peptide (human); KNAKRNLSSEFAN; partner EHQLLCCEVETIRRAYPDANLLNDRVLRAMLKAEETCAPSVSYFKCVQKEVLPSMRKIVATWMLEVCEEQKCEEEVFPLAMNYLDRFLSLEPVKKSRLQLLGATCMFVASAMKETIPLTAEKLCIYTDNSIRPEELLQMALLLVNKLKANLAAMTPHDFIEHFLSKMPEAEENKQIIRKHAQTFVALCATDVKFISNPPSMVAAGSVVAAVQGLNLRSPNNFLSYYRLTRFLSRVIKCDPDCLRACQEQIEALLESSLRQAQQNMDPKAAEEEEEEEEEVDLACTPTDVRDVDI
Under “normalised enrichment score”, `P1 G10R` is recorded as 0.462 (CCNB2; yeast growth competition, sequencing; yeast; weak parent motif; reference: not given, higher = stronger binding).
The fold induction of `PhoQ, residues 284 288 289 292 302 303 SSTMSV` is reported as 0.853 (PhoP, residues 12 14 15 18 19 SMASL (Escherichia coli, UniProt P23836); Sort-seq, refers to: YFP reporter; E. coli; PhoQ-PhoP variant library, with: 10 µM Mg2+; reference: high Mg2+ state, higher = stronger signaling).
`P2 N2P` — result for “normalised enrichment score”: 0.791 (CCND1; yeast growth competition, sequencing; yeast; weak parent motif; reference: not given, higher = stronger binding).
`P2 S8K` — result for “normalised enrichment score”: 0.234 (CCND1; yeast growth competition, sequencing; yeast; weak parent motif; reference: not given, higher = stronger binding).
For `P1 R5L`, “normalised enrichment score” read 0.0765 (CCNB2; yeast growth competition, sequencing; yeast; weak parent motif; reference: not given, higher = stronger binding).

Some of these lines once more (further values, each from its own experiment):
Under “normalised enrichment score”, `P1 G10R` is recorded as 0.462 (CCNB2; yeast growth competition, sequencing; yeast; weak parent motif; reference: not given, higher = stronger binding).
For `P1 R5L`, “normalised enrichment score” read 0.0765 (CCNB2; yeast growth competition, sequencing; yeast; weak parent motif; reference: not given, higher = stronger binding).
The fold induction of `PhoQ, residues 284 288 289 292 302 303 SSTMSV` is reported as 0.853 (PhoP, residues 12 14 15 18 19 SMASL (Escherichia coli, UniProt P23836); Sort-seq, refers to: YFP reporter; E. coli; PhoQ-PhoP variant library, with: 10 µM Mg2+; reference: high Mg2+ state, higher = stronger signaling).
